Assay results from different studies.

CNC(=O)c1ccc(-c2cnc3ncc(Cc4ccc5ncccc5c4)n3n2)cc1F  adverse event incidence (phase 1 clinical trial, refers to: peripheral edema; dose escalation cohort; oral, dose not given, grade 3 or 4): 5%
Cc1c(C(=O)O)ccc2c3n(nc12)[C@@H]1[C@H](C3)N(CC2CC2)[C@@]2(C(=O)Nc3cc(Cl)ccc32)[C@H]1c1cccc(Cl)c1F  adverse event incidence (phase Ia trial, refers to: Pyrexia; cancer patients; oral, dose not given, all patients all grades): 14.8%
O=C1CCc2ccc(OCCCCN3CCN(c4cccc(Cl)c4Cl)CC3)cc2N1  adverse event incidence (refers to: Akathisia; patients, CYP2D6 intermediate metabolizers; dose not given, long-acting oral or depot): 8.5%
Cc1c(Cl)c(C)[n+]([O-])c(Cl)c1-c1noc(-c2cc(O)c(O)c([N+](=O)[O-])c2)n1  adverse event incidence (refers to: Severe severity; healthy Chinese subjects; oral, 50 mg, 10 days): 0%
FC(F)(F)c1ccc(CNc2ccc(Cc3c[nH]c4ncc(Cl)cc34)cn2)cn1  adverse event incidence (refers to: periorbital oedema; patients with advanced solid tumours; oral, dose not given, grade 3 and 4, possibly related to drug): 0%
Cc1ccc(Sc2ccccc2N2CCNCC2)c(C)c1  adverse event incidence (any TEAE; healthy adult men; oral, 5 mg single dose, 10 days): 0%
CC(=O)O[C@H]1C(=O)[C@@]2(C)[C@H]([C@H](OC(=O)c3ccccc3)[C@]3(O)C[C@H](OC(=O)[C@H](O)[C@@H](NC(=O)c4ccccc4)c4ccccc4)C(C)=C1C3(C)C)[C@]1(OC(C)=O)CO[C@@H]1C[C@@H]2O  adverse event incidence (refers to: Hypophosphataemia; patients with advanced solid tumours; intravenous, dose not given, grade 1 and 2, possibly related to drug): 6%
CC(C)n1c(Nc2cccnc2)nc2cnc(Nc3ccc(N4CCN(C)CC4)cc3)nc21  adverse event incidence (refers to: Headache; healthy male subjects; oral, 150 mg, together with: rifampin): 0%

Repeated from above:
Cc1ccc(Sc2ccccc2N2CCNCC2)c(C)c1  adverse event incidence (any TEAE; healthy adult men; oral, 5 mg single dose, 10 days): 0%
